# Experimental data of several laboratories.
# Compare with care: the assays were run in different laboratories. Values joined by “and” are separate records of one study, mostly repeats; a detail may differ. Numbers after ± are the reported error.
SMILES,assay,test system,conditions,how to read,quantity,value
O=C(O)CNC(=O)Cc1ccccc1,,"ventricular cardiomyocytes, C57BL/6 mouse","dose not given, 0.628 s",,sarcomere length,1.7 µm
CSCCNc1nc(SCCC(F)(F)F)nc2c1ncn2[C@@H]1O[C@H](COP(=O)(O)OP(=O)(O)C(Cl)(Cl)P(=O)(O)O)[C@@H](O)[C@H]1O,light transmittance aggregometry,"human patients, platelet-rich plasma","dose not given, 15 min, together with: ADP 20 µM",baseline: patients,patients with IPA above 80%,5%
C[C@H]1[C@H](OC(=O)CCC(=O)O)O[C@@H]2O[C@@]3(C)CC[C@H]4[C@H](C)CC[C@@H]1[C@@]24OO3,"item: ACTA2, POSTN","C57BL/6 mouse, transverse aortic constriction","dose not given, therapeutic dosing",,myofibroblast marker expression,decreased
Cc1c(C)n(Cc2cccc(OC(C)(C)C(=O)O)c2)c2ccc(C(=O)N[C@@H](C)c3ccc(C(C)(C)C)cc3)cc12,,"C57BL/6 mouse, diet-induced obesity, proximal tibia",dose not given,,bone marrow fat volume,0.004 ± 0.002 mm3
N#Cc1ccn2c(-c3ccncc3)c(-c3ccc(F)cc3)nc2c1,"kinase binding, competitor, MIB/MS competition, item: CKA1",Candida albicans cell lysate,1 µM,baseline: DMSO,log2 fold change,0.289
C[C@H]1C[C@H]2CSC(N)=N[C@@]2(c2nc(NC(=O)c3ccc(OC(F)F)cn3)cs2)CO1,item: total Aβ,"healthy adults, plasma","50 mg once daily, day 7",baseline: placebo,percent change from baseline,-63%
Cc1n[nH]c2ccc(-c3cc(OC[C@@H](N)Cc4ccccc4)cnc3-c3ccoc3)cc12,"kinase binding, competitor, MIB/MS competition, item: TOR1",Candida albicans cell lysate,10 µM,baseline: DMSO,log2 fold change,-1.59
NC(=O)c1cnc2[nH]ccc2c1N[C@@H]1[C@@H]2CC3C[C@H]1C[C@@](O)(C3)C2,"flow cytometry, item: CD4+ central memory T cells","Japanese healthy subjects, peripheral blood","oral, 100 mg twice daily, day 7",,change from baseline,-0.8%
COc1ncnn2ccc(-c3cnc4nc(C)n(Cc5nnc([C@@H](C)F)o5)c4c3)c12,,relapsed or refractory AML or MDS patients,dose not given,,best overall response PR,0%
C=CCn1c(=O)c2cnc(Nc3ccc(N4CCN(C)CC4)cc3)nc2n1-c1ccc2c(n1)[C@@](O)(CC)CC2,,"SK-OV-3 xenograft, NOD/SCID mice","oral, 80 mg/kg, day 17, once daily intermittent x 3 cycles",,tumour volume difference,458 ± 17.1 mm3
C[C@H]1O[C@@H](O[C@H]2CC[C@@]3(C)[C@@H](CC[C@]4(C)[C@@H]3C=C[C@]35OC[C@@]6(CCC(C)(C)C[C@H]63)[C@@H](O)C[C@]54C)[C@]2(C)CO)[C@H](O)[C@@H](O[C@@H]2O[C@H](CO)[C@@H](O)[C@H](O)[C@H]2O)[C@H]1O,,"chronic-plus-binge ethanol mice, liver","oral, 10 mg/kg/day for 7 d, 168 h",,triglyceride level,0.138 mmol/g protein and 0.174 mmol/g protein and 0.141 mmol/g protein and 0.134 mmol/g protein and 0.158 mmol/g protein
N#Cc1ccc2c(c1)[C@H]1CCCN(C(=O)c3ccc4[nH]cnc4c3)[C@H]1C2,item: androstenedione,"human female, Phase II trial","oral, 20 mg once daily, last treatment, HPA axis, mean",,plasma level,4.08 nmol/L
CN(C)C(=O)c1cc2cnc(Nc3ccc(N4CCNCC4)cn3)nc2n1C1CCCC1,"RNA-seq GSEA, item: HALLMARK_COAGULATION",MB002 tumour,"concentration not given, in vivo","baseline: vehicle, direction not given",GSEA enrichment score,-0.234
CCO[C@H]1CCN(Cc2c(OC)cc(C)c3[nH]ccc23)[C@H](c2ccc(C(=O)O)cc2)C1,,"PNH patients, blood","oral, 25 mg then 100 mg, week 12, mean percent change",baseline: baseline,C3d-positive type III RBCs,-87.7%
N=C(N)NCCC[C@H](NC(=O)[C@H](CCCNC(=N)N)NC(=O)[C@H](CCCCN)NC(=O)[C@H](CCC(N)=O)NC(=O)[C@H](CCCCN)NC(=O)[C@H](Cc1ccc(O)cc1)NC(=O)[C@@H](N)CCCCN)C(=O)N[C@@H](CO)C(=O)N[C@@H](Cc1ccc(O)cc1)C(=O)N[C@@H](CCCCN)C(=O)O,,dentin hypersensitivity patients,"5 µg/tooth single, day 22",baseline: baseline,median cold water VAS change,-16.5 mm
Cc1c(C)c2c(c(C)c1O)CCC(C)(COc1ccc(CC3SC(=O)NC3=O)cc1)O2 (stereo not drawn),"RNA-seq pathway analysis, item: inflammatory pathway genes",liver spheroids,"concentration not given, 24 h and 10 d",,gene expression,decreased
COc1cc(O)c(CC=C(C)C)c(O)c1C(=O)/C=C/c1ccc(O)cc1,glucose tolerance test,"male Tac:SW germ-free mice, high-fat diet","in diet, 60 mg/kg/day, 10 weeks, baseline",,blood glucose,134 mg/dL
CCOc1c([C@H](C)n2nc(C)c3c(N)ncnc32)cc(Cl)c(F)c1[C@@H]1CNC(=O)C1,"Olink proximity extension, item: GT","human FL or MZL patients, plasma","dose not given, week 8 day 1, once-daily dosing",baseline: baseline,percent change in level,-43%
